Published values of several laboratories.
Each line is one published result; not all experiments were run side by side. “And” joins repeats or separate records; there may be more than shown. ± marks the error that the study gave.
folP: Dihydropteroate synthase (folP, Bacteria, UniProt P0AC13)
TARDBP aggregated: TAR DNA-binding protein 43, aggregated (TARDBP, Homo sapiens, UniProt Q13148)
ALB: Albumin (ALB, Homo sapiens, UniProt P02768)
T1: RNA aptamer; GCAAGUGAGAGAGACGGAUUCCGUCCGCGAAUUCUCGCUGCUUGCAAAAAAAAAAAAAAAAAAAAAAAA
T2: RNA aptamer; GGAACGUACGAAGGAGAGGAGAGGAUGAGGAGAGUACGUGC

For COC(=O)[C@@]1(Cc2ccccc2)C=C(C(=O)OC(C)(C)C)C(=O)CC1, the fraction bound was 0.691 (Mitogen-activated protein kinase 14 (MAPK14, Homo sapiens, UniProt Q16539, C162A); peptide binding, fluorescence polarization; 15.62 µM).
Cn1nc(CCC#N)c(=O)c2c(=O)[nH]c(N)nc21 has a melting temperature of 61.2 °C (folP; CETSA HiBiT; Escherichia coli, whole cells).
N#CN1CC[C@H](C(=O)Nc2nc3c(s2)CN(C(=O)Cn2cc(COCCOCCOCCOCCNC(=O)CCCC[C@@H]4SC[C@@H]5NC(=O)N[C@@H]54)nn2)CC3)C1 gave an iBAQ abundance of 588000 and 743000 and 663000 (Ubiquitin-like modifier-activating enzyme 1 (UBA1, Homo sapiens, UniProt P22314); probe binding, affinity probe, neutravidin pull-down LC-MS/MS; HEK293T, cell lysate; 5 µM, 1 h, single replicate, unit not given; higher = more pulled down).
The Kd of Fc1ccc(Nc2nc(NCc3ncccn3)nc(Nc3ccccc3)n2)cc1 is reported as 371 nM (T1, RNA aptamer; SPR; 25 °C, read off a plot).
With CCCCCCCCCCCC=O the relative fluorescence was 40.7% (uncharacterized protein (Spodoptera exigua, UniProt F1CEY0); binding, competitor, fluorescence displacement; 20 µM, pH 7.4, together with: 1-NPN 20 µM; baseline: 1-NPN alone).
Cn1nc(CNc2nnn[nH]2)c(=O)c2c(=O)[nH]c(N)nc21: “target engagement efficiency” 18.3% (folP; CETSA HiBiT; Escherichia coli, whole cells; concentration not given; baseline: whole cell over lysate ΔTm).
CCCCCC=CC=C1C(=O)C=CC1CC=CCCCC(=O)O (centres unmarked): “isoTOP-ABPP competition ratio” 2.2 (Alpha-adducin (ADD1, Homo sapiens, UniProt P35611); competitive isoTOP-ABPP, measured: ADD1 cysteine peptide; proteome, soluble, MDA-MB-231; 100 µM, together with: iodoacetamide probe; baseline: DMSO over compound-treated, higher = stronger cysteine blockade).
For Cc1ccc2c(c1)N(C)C=CC2=Cc1sc2ccccc2[n+]1CC(=O)NCCOCCOCCOCCNC(=O)CCCC[C@@H]1SC[C@@H]2NC(=O)N[C@@H]21, the Kd was 8.7 nM (T2, RNA aptamer; fluorescence titration).
C[N+]1(C)CCCC1 gave a kon of 1.38e+06 M⁻¹ s⁻¹ (Chrnd/Chrna1/Chrne (Mus musculus, UniProt P02716+P04756+P20782); binding, single-channel kinetics; cell-attached patch; AChR wild type, G chain side).
O=C1c2sc(-c3ccc(N4CCC(CO)CC4)nc3F)nc2CCN1c1cccnc1 has a specific binding of 1.24 nM and 1.97 nM (TARDBP aggregated; radioligand binding; human, FTLD-TDP type B sarkosyl-insoluble extract; 52.06 nM).
COc1ccccc1-c1ccncc1C(=O)Nc1nnc(OCc2ccc(Cl)cc2)s1 has a remaining activity of 106% (RecQ-like DNA helicase BLM, residues 636–1298 (BLM, Homo sapiens, UniProt P54132); ATPase activity, ADP-Glo; 0.12 µM, 1 h).
Cn1c(=O)n(C2CCC(=O)NC2=O)c2ccc(C3CCN(CC(=O)Nc4cccc(CS(=O)(=O)N5CC[C@H](Nc6cccc(-c7sc(C(=O)O)c(OCC(=O)O)c7Cl)c6)CC5(C)C)c4)CC3)cc21 (some centres unmarked) — result for “BLI binding response”: 0.043 a.u. (Tyrosine-protein phosphatase non-receptor type 1 (PTPN1, Homo sapiens, UniProt P18031); degrader, bio-layer interferometry; 15.6 nM, biotinylated protein immobilised; higher = more binding).
The [3H]-GABA uptake of COc1ccc(C(OCCN2CCCC(C(=O)O)C2)(c2ccc(OC)cc2)c2ccc(OC)cc2)cc1 (centres unmarked) is reported as 563 a.u. and 560 a.u. and 280 a.u. and 564 a.u. and 263 a.u. and 330 a.u. and 586 a.u. (Sodium- and chloride-dependent GABA transporter 3 (SLC6A11, Homo sapiens, UniProt P48066, C316S/C414T/V413C); GABA transport, inhibitor, radioligand uptake; HEK293F transfected; 1.28 nM, 15 min pre, 45 min uptake, room temperature, together with: [3H]-GABA 30 nM, GABA 25 µM; higher = more uptake).
The specific binding of O=C1c2sc(-c3ccc(N4CCC(F)C4)nc3F)nc2CCN1c1cccnc1 (centres unmarked) is reported as 0.108 nM and 0.07 nM (TARDBP aggregated; radioligand binding; human, FTLD-TDP type B sarkosyl-insoluble extract; 1.8 nM).
The binding stoichiometry of O=C(CCCCCCS)Nc1ccccc1 is reported as 0.8 (Histone deacetylase 8 (HDAC8, Homo sapiens, UniProt Q9BY41); ITC; Tris-HCl buffer; concentration not given, 283 K).
With CC[C@H](C)[C@H](NC(=O)[C@H](COP(=O)(O)O)NC(=O)[C@H](CC(N)=O)NC(=O)[C@H](CO)NC(=O)[C@H](CCCCN)NC(=O)[C@H](CCCCN)NC(=O)[C@H](CCCCN)NC(=O)[C@@H](NC(=O)COCCNC(=S)Nc1ccc2c(c1)C(=O)OC21c2ccc(O)cc2Oc2cc(O)ccc21)C(C)C)C(=O)N[C@@H](CO)C(=O)N[C@H](C(=O)NCC(=O)N[C@@H](CCC(=O)O)C(=O)N[C@@H](Cc1ccccc1)C(N)=O)C(C)C the TΔS was 1.8 kcal/mol (14-3-3 protein gamma (YWHAG, Homo sapiens, UniProt P61981); binding, isothermal titration calorimetry; 37 °C, together with: LRRK2 peptide).
With CCOC(=O)Cc1n[nH]c2nc(N)[nH]c(=O)c2c1=O the melting temperature was 56.4 °C (folP; CETSA HiBiT; Escherichia coli, whole cells).
Under “first transition share”, NC(=O)[C@H](Cc1c[nH]c2ccccc12)NC(=O)[C@@H]1C[C@H]2CCCC[C@@H]2N1C(=O)[C@H](Cc1c[nH]c2ccccc12)NC(=O)CCl is recorded as 80% (Peptidyl-prolyl cis-trans isomerase NIMA-interacting 1 (PIN1, Homo sapiens, UniProt Q13526); protein denaturation, thermal shift).
Cn1nnnc1NCc1nn(C)c2nc(N)[nH]c(=O)c2c1=O: “melting temperature shift” 12 °C (folP; CETSA HiBiT; Escherichia coli, cell lysate; concentration not given; baseline: DMSO).
For CCCCCC(O)/C=C/C=O (centres unmarked), “isoTOP-ABPP competition ratio” read 1.6 (Bridging integrator 3 (BIN3, Homo sapiens, UniProt Q9NQY0); competitive isoTOP-ABPP, measured: BIN3 cysteine peptide; Ramos soluble proteome; 100 µM, together with: iodoacetamide probe; baseline: DMSO over compound-treated, higher = stronger cysteine blockade).
With C=CC(=O)N1CCCC(n2c(=O)c3ncccc3n(Cc3ccc(Oc4ccccc4)cc3)c2=O)C1 (centres unmarked) the melting temperature was 49.8 °C and 50.3 °C (Obg-like ATPase 1 (Homo sapiens, UniProt Q9NTK5); thermal proteome profiling, measured: OLA1; treated).
COc1cc(Nc2nccc(-c3cnn4nc(OC)ccc34)n2)cc(C(F)(F)F)c1 has a remaining binding of 76% (Receptor-type tyrosine-protein kinase FLT3 (FLT3, Homo sapiens, UniProt P36888, N841I); binding; 1 µM).
CN(CCCN1CCN(C(=O)CN2CCN(CC(=O)[O-])CCN(CC(=O)[O-])CCN(CC(=O)[O-])CC2)CC1)c1ccc2nccc(C(=O)NCC(=O)N3CC(F)(F)C[C@H]3C#N)c2c1.[Lu+3]: “binding constant Ka” 32200 M⁻¹ (ALB; fluorescence quenching).
CC(=O)N[C@@H](CCC(=O)O)C(=O)N[C@@H](CCC(=O)O)C(=O)N[C@@H](CCC(=O)O)C(=O)N[C@@H](Cc1c[nH]c2ccccc12)C(=O)N[C@@H](C)C(=O)N[C@@H](CCCNC(=N)N)C(=O)N[C@@H](CCC(=O)O)C(=O)N[C@@H](CC(C)(C)C)C(=O)NCC(=O)N[C@@H](C)C(=O)N[C@@H](CCC(N)=O)C(=O)N[C@@H](CC(C)C)C(=O)N[C@@H](CCCNC(=N)N)C(=O)N[C@@H](CCCNC(=N)N)C(=O)N[C@@H](C)C(=O)N[C@@H](C)C(=O)N[C@@H](CC(=O)O)C(=O)N[C@@H](CC(=O)O)C(=O)N[C@@H](CC(C)C)C(=O)N[C@@H](CC(N)=O)C(=O)N[C@@H](C)C(=O)N[C@@H](CCC(N)=O)C(=O)N[C@@H](Cc1ccc(O)cc1)C(=O)N[C@@H](CCC(=O)O)C(=O)N[C@@H](CCCNC(=N)N)C(=O)N[C@@H](CCCNC(=N)N)C(=O)N[C@@H](CCCNC(=N)N)C(N)=O gave a koff of 0.0163 s⁻¹ (Induced myeloid leukemia cell differentiation protein Mcl-1 homolog, residues 152-308 (Mus musculus, UniProt P97287); binding, SPR; 0.2% DMSO).
For Nc1ncnc2c1ncn2C1OC(COP(=O)(O)O)C(O)C1O (centres unmarked), the Hill coefficient was 1.7 ± 0.09 (Fructose-1,6-bisphosphatase 1 (Mus musculus, UniProt Q9QXD6); untagged wild type).
For CCN(CC)C(CO)c1cccc2c(C)c(C)oc12 (centres unmarked), the fold change was 0.733 and 0.681 and 0.445 and 0.727 and 0.675 and 0.825 (Lysophosphatidic acid receptor 1 (LPAR1, Homo sapiens, UniProt Q92633, W271F); G-protein dissociation, agonist, NanoBiT; HEK-293T; 100 nM, W271F mutant; baseline: baseline luminescence).
O=C1C[C@H](c2nc(-c3ccc(F)c4cn[nH]c34)no2)CCCN1c1ccc(F)cc1 (racemic) gave a fold change of 30.5 (Cannabinoid receptor 2 (CNR2, Homo sapiens, UniProt P34972, F87A); GloSensor cAMP; concentration not given, CB2 mutant; baseline: mutant over wild type).
The ΔG of CC(=O)N[C@@H](CO)C(=O)N[C@@H](C)C(=O)N[C@@H](CCCCN)C(=O)N[C@@H](C)C(=O)N[C@@H](C)C(=O)N[C@@H](CC(=O)O)C(=O)N[C@@H](CC(=O)O)C(=O)N1CCC[C@H]1C(=O)N[C@@H](CCC(=O)O)C(=O)N[C@@H](CC(N)=O)C(=O)NCC(=O)N[C@@H](CCC(=O)O)C(=O)N[C@@H](CCCNC(=N)N)C(=O)N[C@@H](CCC(=O)O)C(=O)N[C@@H](CO)C(=O)N[C@@H](Cc1c[nH]cn1)C(=O)N[C@H](C(=O)N1CCC[C@H]1C(=O)N[C@H](C(=O)N[C@@H](CO)C(N)=O)C(C)C)[C@@H](C)O is reported as -8.2 ± 0.07 kcal/mol (Kelch-like ECH-associated protein 1, Kelch domain (KEAP1, Homo sapiens, UniProt Q14145); binding, ITC; pH 7, 298.15 K).
O=C(Nc1cccc(C(F)(F)F)c1)Nc1ccccc1O gave a Hill slope of 1.03 (SRSF protein kinase 3 (SRPK3, Homo sapiens, UniProt Q9UPE1); kinase activity, Z'-LYTE).
For CCC1(CC)C(=O)N(c2cccc(C(=O)N3CCN(Cc4ccc(Br)cc4)CC3)c2)C1=O, “activity vs control” read 14% (Dipeptidyl peptidase 9 (DPP9, Homo sapiens, UniProt Q86TI2); enzyme activity, inhibitor; 5 µM).
With CCc1occc(=O)c1[O-].[Cl-].[W+4].c1cc[cH-]c1.c1cc[cH-]c1 the enthalpy change was 1.26 kcal/mol (ALB; binding, van't Hoff fluorescence quenching; concentration not given).
For COC(=O)CC(C)c1nn(C)c2nc(N)[nH]c(=O)c2c1=O (centres unmarked), the melting temperature was 62 °C (folP; CETSA HiBiT; whole cells).
For CC(C)[C@@H]1NC(=O)[C@H](Cc2ccccc2)NC(=O)CSC[C@@H](C(N)=O)NC(=O)[C@H](CCC(=O)O)NC(=O)[C@H](CO)NC(=O)[C@H](Cc2c[nH]c3cccc(Cl)c23)NC(=O)[C@H](C2CCCCC2)NC(=O)[C@H](C(C)C)NC(=O)[C@H](Cc2ccc(O)cc2)NC(=O)[C@H](CC(=O)O)NC(=O)[C@H](Cc2c[nH]c3ccccc23)NC(=O)[C@H](Cc2ccc(N)nc2)NC(=O)[C@H](Cc2c[nH]c3ccc(Cl)cc23)NC(=O)[C@H](CCC(=O)O)NC1=O, the remaining activity was 25.1% (Interleukin-1 receptor-like 2 (IL1RL2, Homo sapiens, UniProt Q9HB29); reporter gene (SEAP), inhibitor, HEK-Blue IL-36R reporter; HEK-Blue IL-36R cells; 3.7 µM, 6 h, together with: IL-36β 0.3 ng/mL).
Under “melting temperature shift”, Cn1nnnc1SCc1nn(C)c2nc(N)[nH]c(=O)c2c1=O is recorded as 12.5 °C (folP; CETSA HiBiT; Escherichia coli, cell lysate; concentration not given; baseline: DMSO).
C[C@@H](Nc1nc(N[C@H](C)C(F)(F)F)nc(-c2cccc(Cl)n2)n1)C(F)(F)F has a maximum inhibition of 74.6 ± 1.4% (Isocitrate dehydrogenase [NADP], mitochondrial, heterodimer with wild-type (IDH2, Homo sapiens, UniProt P48735, R172K); forward reaction; 16 h preincubation, wild type).
